# Published values of several laboratories.
# A part holds a random share of what one study measured.

# Block 1
# Target: Interferon regulatory factor 3, full length, phosphomimetic (IRF3, Homo sapiens, UniProt Q14653, residues 1-427, S386D/S396D/S398D/S402D/T404D/S405D)
# UniProt Q14653, sequence (whole entry, unmodified, looked up): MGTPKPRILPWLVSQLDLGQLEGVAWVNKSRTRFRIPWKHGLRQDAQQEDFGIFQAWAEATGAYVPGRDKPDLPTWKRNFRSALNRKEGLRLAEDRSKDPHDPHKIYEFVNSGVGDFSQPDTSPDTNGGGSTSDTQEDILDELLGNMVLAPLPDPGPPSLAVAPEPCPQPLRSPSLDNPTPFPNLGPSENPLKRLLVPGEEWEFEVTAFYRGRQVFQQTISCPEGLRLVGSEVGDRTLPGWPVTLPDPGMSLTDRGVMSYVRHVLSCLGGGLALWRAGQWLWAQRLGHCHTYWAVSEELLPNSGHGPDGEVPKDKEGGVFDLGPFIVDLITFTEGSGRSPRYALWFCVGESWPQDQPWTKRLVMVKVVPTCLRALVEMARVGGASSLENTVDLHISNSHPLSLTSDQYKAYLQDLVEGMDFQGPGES
# Technique: protein-binding microarray
# Molecule type: double-stranded DNA, one strand shown
# Sample: in vitro
# Concentration: 2540 nM top
# Notes: 60-bp whole probe
# With: salmon DNA 0.4 mg/ml
# Reference: random background probes
# Reading: higher = stronger binding
# Constant ends, left off below: GCCTAGCAC … GTCTTGATTCGCTTGACGCTGCTG
Sequence,fitted relative affinity [z-score]
GACGATATTGGGACTGGAGACGTGCTA,-0.306
GACGGTATCCTTTTACTGACGTGCTAG,7.21
GACGGACTGCTATTCCTGACGTGCTAG,-0.329
TTAGGTATCGACTTTCGGTTTGTGCTA,3.03
GAGGGTATCGGTATCGGGACGTGCTAG,3.29
GACGAACTGGGGTATCGAAACGTGCTA,-0.0373
TTGAATCTCCCATTATATTTGTGCTAG,0.755
TTAGGCCTGGACACTGGGTTAGTGCTA,-1.21
ATTGCTTTCTCTTTCACTGCGTGCTAG,3.77
TTGCCAATGCTTCTGGTCTTGTGCTAG,-0.421
TTATGTTTCGACACTGGGTTAGTGCTA,1.96
TATCAGTAGGTAAGGAAAAGGTGCTAG,0.107
CTGAATGTCCTCCTCTCTCTGTGCTAG,0.544
TTAGGTATCGGACTGTGTTAGTGCTAG,1.31
GACGGAATGCTTATCCTGACGTGCTAG,0.00369
TTTGATATCAGACTGGATTAGTGCTAG,0.258
TCAGTAATCGAAATCTTACTGTGCTAG,0.102
TTAGGTATCGGGCATCGGTTAGTGCTA,-0.0887
TCAATTCTCATTTCCAAACTGTGCTAG,2.94
TCATACTTGTGTCTAGAACTGTGCTAG,0.423
ACAGATGAGGAACCAAGGCCGTGCTAG,-0.262
GACGGACTGGGACTGGGGAGGTGCTAG,-0.906
GACGAAATGAGTCTCGAGACGTGCTAG,-0.146
TTTTCTTTTCATTACTGCATGTGCTAG,6.29
TGGATGGTCCTGGTTTCATGGGTGCTA,-0.405

# Block 2
# Target: Sal-like protein 4, full length isoform B (SALL4, Homo sapiens, UniProt Q9UJQ4-2, residues 1-616)
# Technique: universal PBM
# Molecule type: double-stranded DNA, one strand shown
# Sample: in vitro
# Concentration: not given
# Notes: 8-mer, flanks averaged, mean of replicates
# Reading: higher = stronger binding
Sequence,E-score
CACCCATA,-0.106
ACAACGTA,0.0481
GGATCATA,0.155
GCTTGCAC,-0.198
ATGCAAGC,0.126
AGCAAGAT,0.0298
ACTCTAAT,0.201
AACAACGG,-0.0545
AAGATTCG,0.0961
CTGCAAAG,-0.152
GCCCCCAA,-0.0501
TAGTCCGA,-0.0195
ATAATTTC,0.379
AATGGCGT,-0.0887
CTTCGAAC,-0.274
AGAAACCG,-0.282
AGTCCATC,0.0139
ACTTGTGC,-0.0052
AAGATCTT,0.231
GGTCGCAA,-0.189
ACGGCGTC,-0.251
AAAGGTAC,0.0187
GGCAGTAA,-0.0977
CACGACAA,0.0201
AGAATTGA,0.144

# Block 3
# Target: UBE2J1 UBC core domain (UniProt Q9Y385)
# UniProt Q9Y385, sequence (whole entry, looked up): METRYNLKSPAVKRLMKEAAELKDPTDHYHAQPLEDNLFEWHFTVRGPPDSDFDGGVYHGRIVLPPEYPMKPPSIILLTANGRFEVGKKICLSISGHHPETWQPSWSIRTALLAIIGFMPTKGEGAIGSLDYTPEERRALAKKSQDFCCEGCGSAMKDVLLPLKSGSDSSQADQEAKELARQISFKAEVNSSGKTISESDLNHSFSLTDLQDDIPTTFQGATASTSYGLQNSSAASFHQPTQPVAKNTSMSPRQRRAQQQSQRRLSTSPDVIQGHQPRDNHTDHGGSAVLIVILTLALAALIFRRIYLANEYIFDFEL
# Technique: yeast two-hybrid
# Sample: yeast
# Notes: mostly zero background
# Reference: not given
# Reading: higher = stronger interaction
# B1: RNF133 RING domain (UniProt Q8WVZ7); chain DEEINPNGDSCVICFERYKPNDIVRILTCKHFFHKNCIDPWILPHGTCPICKCDILKVLGIQ
# B2: RFWD3 RING domain (UniProt Q6PCD5); chain ASMDEEEGDTCTICLEQWTNAGDHRLSALRCGHLFGYRCISTWLKGQVRKCPQCNKKARHSDIVV
# B3: SYTL4 RING domain (UniProt Q96C24); chain RGSQHYSDRTCARCQESLGRLSPKTNTCRGCNHLVCRDCRIQESNGTWRCKVCAKEIELKKAT
# B4: UBOX5 RING domain (UniProt O94941); chain EQPGSILGPECASCKRVFSPYFKKEPVYQLPCGHLLCRPCLGEKQRSLPMTCTACQRPVASQDVLR
# B5: ZMIZ2 RING domain (UniProt Q8NF64); chain GTIPGTPGPNGEDGVEQTAIKVSLKCPITFRRIQLPARGHDCRHIQCFDLESYLQLNCERGTWRCPVCNKTALLEGLEVDQYMLGILIYIQNSDYEEITIDPTCSWK
Sequence,lacZ reporter activity
B1 (RNF133 RING domain),0
B2 (RFWD3 RING domain),0
FDGDVDPDLKCALCHKVLEDPLTTPCGHVFCAGCVLPWVVQEGSCPARCRGRLSAKELN (PDZRN3 RING domain (UniProt Q9UPQ7)),0
KETIKKTTKPCPRCHVPVEKNGGCMHMKCPQPQCRLEWCWNCGCEWNRVCMG (PRKN RING domain (UniProt O60260)),0
B3 (SYTL4 RING domain),0
KLRKLKEAMLCMVCCEEEINSTFCPCGHTVCCESCAAQLQSCPVCRSRVEHVQHVY (MYLIP RING domain (UniProt Q8WY64)),0
B4 (UBOX5 RING domain),0
AMYLQENGIDCPKCKFSYALARGGCMHFHCTQCRHQFCSGCYNAFYAKNKC (RNF31 RING domain (UniProt Q96EP0)),0
B5 (ZMIZ2 RING domain),0

# Block 4
# Target: Histone acetyltransferase KAT6A, winged helix 2, GST fusion (KAT6A, Homo sapiens, UniProt Q92794, residues 85-181)
# Technique: protein binding microarray
# Molecule type: double-stranded DNA, one strand shown
# Sample: in vitro
# Concentration: not given
# Notes: 8-mer, flanks averaged, mean of 2 arrays, mostly near background
# Reference: not given
# Reading: higher = stronger binding
# Target sequence (chain): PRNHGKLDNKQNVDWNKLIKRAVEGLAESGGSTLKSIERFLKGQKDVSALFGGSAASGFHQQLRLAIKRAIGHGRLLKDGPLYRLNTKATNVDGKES
Sequence,E-score
TAGTAGCA,0.0573
AAATGTAG,-0.132
ACACAATG,-0.0605
CGGCTGAC,0.0604
CTCGCCGC,0.172
GCACGAGA,0.0492
GAGATGCA,0.0845
CCCCCGGG,0.154
CACCTCTG,-0.0747
ATGAACCA,0.123
AGATGCCA,-0.129
AGGTAAGC,-0.0857
ACGTAGAA,-0.104
AGTTACCA,-0.006
ACCCAGCG,0.0881
ACAATTAA,0.0343
CATTCATA,0.0857
AAAATAAT,0.181
AAAGGTGG,-0.0991
AGGTTTAT,0.0248
CACTCTGC,0.0991
ATGCTGAG,0.0192
AGTAATGA,0.00936
AAAGATGG,-0.134
CCAATCGG,0.0908

# Block 5
# Target: Prothrombin, mature alpha-thrombin (F2, Homo sapiens, UniProt P00734)
# Technique: aptamer microarray, sandwich
# Molecule type: DNA with 2'F-ANA
# Sample: in vitro
# Concentration: 200 nM
# Notes: whole 15-mer aptamer, many near background
# With: Cy3 exosite-II aptamer, 400 nM
# Reading: higher = stronger binding
# Sequence: GGTTGGTGTGGTTGG
Modification,mean fluorescence intensity [a.u.]
2'F-ANA at 1 2 5 7 10 12 13 15,46.9
2'F-ANA at 2 8 9 10 14,94.4
2'F-ANA at 2 4 5 8 13 14,47.1
2'F-ANA at 1 6 10 11 12 14 15,46.7
2'F-ANA at 1 6 8 11 14 15,59.8
2'F-ANA at 2 3 4 5 7 14,48.8
2'F-ANA at 1 2 4 5 7 8 10 11 13 15,45.3
2'F-ANA at 2 3 4 7 8 10 11,289
2'F-ANA at 2 5 8 9 10 11 12 15,77.7
2'F-ANA at 1 3 5 6 10 11 12 13 14 15,48.1
2'F-ANA at 2 3 5 6 10 15,54.3
2'F-ANA at 5 6 8 9 10 13,47

# Block 6
# Target: Hepatocyte nuclear factor 3-alpha (Foxa1, Mus musculus, UniProt P35582, residues 1-468, full length assumed)
# Technique: EMSA with sequencing
# Molecule type: double-stranded DNA, one strand shown
# Sample: in vitro
# Concentration: 10 and 20 nM
# Notes: whole designed probe, mean of two concentrations, ends assumed
# Reference: negative control set to 0
# Reading: higher = stronger binding
# Construct (chain): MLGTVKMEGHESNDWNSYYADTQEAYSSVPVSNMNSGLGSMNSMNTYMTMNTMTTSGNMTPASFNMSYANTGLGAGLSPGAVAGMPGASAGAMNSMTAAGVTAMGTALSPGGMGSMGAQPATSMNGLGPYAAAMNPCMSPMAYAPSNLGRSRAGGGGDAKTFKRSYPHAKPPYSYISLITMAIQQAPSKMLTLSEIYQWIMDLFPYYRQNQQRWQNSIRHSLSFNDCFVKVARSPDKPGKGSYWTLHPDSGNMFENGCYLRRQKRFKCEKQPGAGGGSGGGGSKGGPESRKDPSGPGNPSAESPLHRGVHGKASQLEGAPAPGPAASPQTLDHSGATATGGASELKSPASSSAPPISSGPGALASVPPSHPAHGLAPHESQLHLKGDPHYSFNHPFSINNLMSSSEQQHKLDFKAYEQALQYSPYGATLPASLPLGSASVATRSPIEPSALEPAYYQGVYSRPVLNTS
Sequence,normalised bound fraction [ratio]
GTGAGCGGTGCCCATTGATGGGGAACTGCTCTTACATATGAGTGATAATTGGGCTGGATATAGAATTCTAGGTTGGAAATATTTTTTCTTTAAAATGTTGAAGTCACTGTCCTGTTTTTAGATTGCTTTTTTGTGGGATTTTCTCCCTGTGTGCTATTGAGACTTCTGAATTCATTCTAATTCCTGACTGTGGCATGTGACTTGTTTTTCTCCTTCCCTTTTCACTGGGATCGTGGGGAC,-0.0767
GTGAGCGGTGCCCATTGATGGGGAACCGTTTGCCAGCCCAAGATAGGCTGTGACAAAAGGAAGTGAGCCTTATCTATCAGTGGAGGTTGAACAACCAGCAACGTGAGTCATCCGCAAAAGTAAACAGCTGGGGCTAGATGCGGTGGCTCGCGCCTGTAATCCCAGCACTTTAGGAGGCCAAGGCAGGTGGATTACCTGAGGTCAGCCTGACCAACATGGTTTCACTGGGATCGTGGGGAC,0.289
GTGAGCGGTGCCCATTGATGGGGAACGAAATGAGTCAGCTTAATCAACTGAAATTCGCATTTGCATAGTTCTCGAGGCTAGAAGTTCCAGACCAGGACACAGTGAGGAGGCAGCAGTCTGCAAACAAGGAAGAGAGCCCTCACCAGGAAATCAGTCAGCTGTTCTCATTTAATGTTCTCACTTTAGAAGATCATGCAAGGGACAAAATCTCCAGAATCTTTTCACTGGGATCGTGGGGAC,0.0753

# For quick reference, copied from above (block 1):
Sequence,fitted relative affinity [z-score]
GACGGAATGCTTATCCTGACGTGCTAG,0.00369
TTTGATATCAGACTGGATTAGTGCTAG,0.258
TCAGTAATCGAAATCTTACTGTGCTAG,0.102
TTAGGTATCGGGCATCGGTTAGTGCTA,-0.0887
TCAATTCTCATTTCCAAACTGTGCTAG,2.94
TCATACTTGTGTCTAGAACTGTGCTAG,0.423
ACAGATGAGGAACCAAGGCCGTGCTAG,-0.262
GACGGACTGGGACTGGGGAGGTGCTAG,-0.906
GACGAAATGAGTCTCGAGACGTGCTAG,-0.146
TTTTCTTTTCATTACTGCATGTGCTAG,6.29
TGGATGGTCCTGGTTTCATGGGTGCTA,-0.405
